Measured values of several laboratories.
Each numbered part is a random draw from the data of one study; scales do not carry over between parts.

Set 1
Target: RING finger protein unkempt homolog, zinc fingers 1-6, GST-SBP tag (UNK, Homo sapiens, UniProt Q9C0B0, residues 30-357)
Method: RNA Bind-n-Seq
Molecule type: RNA
Sample: in vitro
Tested at: not given
Notes: RNA with constant flanks, human and mouse sites, ends assumed
Reference: input RNA pool
Reading: higher = stronger binding
Target sequence (chain): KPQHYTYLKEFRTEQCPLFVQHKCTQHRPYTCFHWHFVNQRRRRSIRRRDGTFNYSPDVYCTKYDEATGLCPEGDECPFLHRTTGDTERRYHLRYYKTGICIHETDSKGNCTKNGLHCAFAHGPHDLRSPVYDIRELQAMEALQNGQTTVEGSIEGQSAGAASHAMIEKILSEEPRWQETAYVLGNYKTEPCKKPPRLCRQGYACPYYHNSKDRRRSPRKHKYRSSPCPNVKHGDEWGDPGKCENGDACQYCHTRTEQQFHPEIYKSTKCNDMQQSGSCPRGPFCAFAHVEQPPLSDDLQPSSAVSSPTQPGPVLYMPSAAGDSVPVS
Oligonucleotide | bound/input enrichment [ratio]
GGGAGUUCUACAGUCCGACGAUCCAGCUGCCAAAGCUGCCAAAGCCUCAAAUGCUUCUACACCUACCAAGGGGAACACAGAAACUGGUGCCAGUGUCUCACAGACAAACCAUGUGAAGGAAGUCAAAAAACUUAAAACUGAGCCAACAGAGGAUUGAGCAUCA | 0.242
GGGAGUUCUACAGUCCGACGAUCAUUGUCCCCUGGUGAGGGGAGCAGGGGAGAGAAAAUGGUAGCCAUUUUUACAUUGUUUUGUAUAGUAUUUAUUGAUUCAGGAAACAAACACAAAAUUCUGAAUAAAAUUACUUGGAAACUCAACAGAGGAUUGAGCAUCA | 0.948
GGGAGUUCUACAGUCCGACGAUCCUGCUCACCCAGUACGAGCGUGAGAAGGCGCUGCGCAGGCAGGCGGAGGAGAAAUUCAUUGAGUUUGAAGAUGCUCUGGAACAAGAGAAGAAAGAGCUGCAAAUCCAGGUGGAGCACUACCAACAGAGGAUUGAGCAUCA | 0.0988
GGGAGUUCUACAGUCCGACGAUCUUUCUAGUUUGAGCUUUCUUUUUGGCCGUCUUUAAAAAAAUUUUUUUUUUUAAUCUAUAAAAUAGACAAGAGCUAGUUCUACAAUGUCCAAGUCAUUCCAGCAGUCAUCUCUCAGUAGGGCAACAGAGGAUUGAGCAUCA | 0.707
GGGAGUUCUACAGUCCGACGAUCCCUCUUGUGGGCAAGGACAGUUUUAAUGUUGAUCCCAGCAGUGUGUGUCUUUAUUUCCUCACUAGAGUAGGAAAAAGCCCAGUGUAUUCCUCAUGAAUGCUCUCUAAACCUGUGAAGAGCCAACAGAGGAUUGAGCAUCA | 0.172
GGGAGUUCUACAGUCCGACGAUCGAGGUCCUGAGGCAGGAAGACAAAGCUGAAGCUAUGUCUGGCCACAUUGAUCAGUUUCUGAUAGCAACAUUCAUGCAGCUAAGACUCAUCUACAGCACACACAUGGCAGAUGAGAAGUUGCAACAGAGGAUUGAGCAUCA | 0.231
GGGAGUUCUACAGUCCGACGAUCGGAAUUGCAAACUGAUUCAAGUUUGAAUAUCACAAUGUUAGCUUUCUAAUUCCACACAGAUAGUUUUUACAGUUUCUAACCCCACAUCAAUCCAUCACCGUUUAUAAAGAUCAGCUUCCCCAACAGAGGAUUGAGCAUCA | 2.68
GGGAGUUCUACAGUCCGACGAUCAAUCUUCAAUGAGUAAACAUAUUCCUCAAUUCUGUGGUGUUCUUGGUCACACAUUUAUGGAGUUUCUGAAGGGCAGUGGAGAUUACUGCCAGGCACAGCACGACCUCUAUGCAGACAAGUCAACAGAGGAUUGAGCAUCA | 0.248

Set 2
Target: RNA binding protein fox-1 homolog 2, RRM domain, GST-SBP tag (RBFOX2, Homo sapiens, UniProt O43251-10, residues 100-194)
Method: RNA Bind-n-Seq
Molecule type: RNA
Sample: in vitro
Tested at: 365 nM
Notes: natural RNA segment, single round, ends assumed
Reference: no-protein control
Reading: higher = stronger binding
Construct (chain): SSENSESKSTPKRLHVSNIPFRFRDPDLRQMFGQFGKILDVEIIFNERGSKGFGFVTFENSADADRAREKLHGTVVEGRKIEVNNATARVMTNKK
Oligonucleotide | RBNS enrichment (R)
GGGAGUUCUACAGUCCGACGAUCGAAGAUUCAGUGAAGGUUGAAGAAUAGAAUGUCUGCUGAAUGUGCAAGCCCUACCUAAGGAACGGCUCUUGGAAGACUUCAUAAUGAUGCUGUCUCUGGCUGGGCCUUGGUGGAAUUCUCGGGUGCCAA | 0.653
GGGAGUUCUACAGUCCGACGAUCGUGGGGCGGGCUUCAUAGAGACUUGGGAAUGAGCUGAAGGUGAAACAUUUUCUCCCUGGAUUUUUACCAGUCUCACAUGAUUCCAGCCAUCACCUUAGACCACCAAGCCUUGGAAUUCUCGGGUGCCAA | 0.224
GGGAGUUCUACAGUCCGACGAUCUAUAAAUCCUCAUAGCGGAACAUUUCUCAGGGCAAAGGAACCUGGCUCAUUUGAAGAUUAAUGUUCCAUGCCUUUGUGGUCAAAGGGUCAGCACUUAACACAGGAAAAAAUGGAAUUCUCGGGUGCCAA | 1.53
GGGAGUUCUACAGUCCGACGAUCUUUUUUCCAUAUUUUUGAAAGAUUUUUCAGAUGUGAACAUUAAAAAUAGGGAUUAAAUGUCUAGGCUUCCAUUUAAAAUUAUAUGAAUGGUUUGGGAUCUUUUUGCACUGUGGAAUUCUCGGGUGCCAA | 0.94
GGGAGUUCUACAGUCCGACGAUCAAGCAACCUAGUUUAUGGGGCAGCUGGACUUUGCAUGUUAGAGUGAGCCCCAAGCCCCUUGGCCCACCACCCUGUUGUCUGAAGGGCUCUGUCUCACUCCACCUCCUUAUUGGAAUUCUCGGGUGCCAA | 23.3
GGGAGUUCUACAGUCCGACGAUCUAGAAACCUUUUUCUACUUACUAUCAUUUUUAUUGUGGCUUGAGCUCAGUCAAUCUGGUGCAGAUGAGGCUGGACAACUACUAACCAAUAAAAUCAGGAGUUUGUACAAAUGGAAUUCUCGGGUGCCAA | 0.3
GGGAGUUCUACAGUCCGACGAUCCUCUUACAUGGCCACAAAGGGACACACAGUGACAAAAGGCUCGGAAUGUUACAAUGGUAAAAUGAGUGAUCUCAAAUCCACUGACAGAUAUAAAAUAGGCUUAGAGAGGAUGGAAUUCUCGGGUGCCAA | 0.895
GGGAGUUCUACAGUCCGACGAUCGGGCCCGGCUGUUAGCACCGUGCUGACUUUCCAUUGGAGACUUGAGUUGGAGAGAGGUGGGUCCUAUUGUAACAACCGCUAUAAUUUAUAUGGACUAUAUUGUCUCCCUGUGGAAUUCUCGGGUGCCAA | 0.565
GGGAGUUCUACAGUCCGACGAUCCAGAAAUUUAAAAAAUGAUAUUGGGACCUGGAAGGUUUAAUAUGGUUCACAGUGCCUGAAUUACACCUGCUCCGAAAACUAGCUUUGUAUUUCUUAUGACUUUGCAUAAGUGGAAUUCUCGGGUGCCAA | 0.431

Set 3
Target: Histone acetyltransferase KAT6A, both winged helices, GST fusion (KAT6A, Homo sapiens, UniProt Q92794, residues 1-181)
Method: protein binding microarray
Molecule type: double-stranded DNA, one strand shown
Sample: in vitro
Tested at: not given
Notes: 8-mer, flanks averaged, mean of 2 arrays, mostly near background
Reference: not given
Reading: higher = stronger binding
Residues (chain): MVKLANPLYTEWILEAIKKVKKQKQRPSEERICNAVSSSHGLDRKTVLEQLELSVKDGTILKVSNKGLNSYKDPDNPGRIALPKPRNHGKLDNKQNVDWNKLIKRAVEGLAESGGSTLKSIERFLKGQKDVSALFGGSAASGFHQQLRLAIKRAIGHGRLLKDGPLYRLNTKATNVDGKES
Oligonucleotide | E-score
GCTCCCGA | -0.0277
ATGCGTGG | 0.0335
GCTTCCAA | -0.00436
GAAGGTAC | -0.122
CAAACCGA | 0.0245
ACCCATCG | -0.0948
ATACCCTA | -0.282
CGATGTAC | 0.00326
AGACATAA | -0.0122
CGCGAGAC | 0.2
CAACTGAG | 0.00547
ACCTCCGC | 0.0693
GAACCGGC | 0.269
GTCGACTA | 0.0479
CTACGATA | -0.202
CATCTGAC | -0.202
CGCATCTA | 0.134
AATTAGTC | -0.0388
ATTCGATC | 0.117
GACGTCCC | -0.0979
ACGCGAGC | 0.184
CCACGTTC | -0.0218
ATCCCTCC | -0.142
GACATTCC | -0.00839
GCATACAC | -0.00966

Set 4
Target: Centromere-binding protein 1, full length, His-tagged (CBF1, Saccharomyces cerevisiae, UniProt P17106, residues 1-351)
Chain of UniProt P17106 (whole entry, looked up): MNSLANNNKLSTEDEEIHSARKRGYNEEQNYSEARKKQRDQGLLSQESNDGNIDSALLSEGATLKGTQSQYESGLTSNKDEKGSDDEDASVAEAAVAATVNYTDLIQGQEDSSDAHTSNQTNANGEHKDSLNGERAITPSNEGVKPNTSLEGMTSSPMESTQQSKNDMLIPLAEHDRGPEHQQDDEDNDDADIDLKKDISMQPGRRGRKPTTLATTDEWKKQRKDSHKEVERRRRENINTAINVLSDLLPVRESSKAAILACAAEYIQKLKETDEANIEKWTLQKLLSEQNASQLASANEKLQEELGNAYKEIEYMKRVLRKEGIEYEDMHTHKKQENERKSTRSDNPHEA
Method: competition protein-binding microarray
Molecule type: double-stranded DNA, one strand shown
Sample: in vitro
Tested at: 2 µM
Notes: whole 60-bp probe, lowest competitor level
Added: Pho4 competitor, 0.05 µM
Reading: higher = stronger binding
Oligonucleotide | fluorescence intensity [a.u.]
CGGGGTTAAGTTTGCCGGGTGGGTGGCTTGCAGCAGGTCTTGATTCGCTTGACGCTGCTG | 62.6
TCGTACCGAGTGATGAACGTGGTGATGAACACCTTGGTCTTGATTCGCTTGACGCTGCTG | 76.9
ACAATGGTGGGATGGCCCGTGGGTAAGTCGTGTAGTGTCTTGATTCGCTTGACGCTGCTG | 69.1
TTTTTTCTGTTAGGGCACATGACAATTGCCTATTATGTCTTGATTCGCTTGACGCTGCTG | 469
GCTGCCAAGAAAAAGCACGTGTAACAATGGAATGATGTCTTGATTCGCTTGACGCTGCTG | 1970
CTTCAGGGCAACAACCATGTGTTTCCTGGAAGCTTGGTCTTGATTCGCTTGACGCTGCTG | 81.4
TAGTTGCATCATCGACACATGCAATATCAAAAGTAAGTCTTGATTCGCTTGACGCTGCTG | 100
GCAAATCCTCCCACACATGTGACGCTTTGAATCAAGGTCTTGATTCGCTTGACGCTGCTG | 770
CTTCTGTAAATTTGATGTGTGGGTGGACGCGCCCCGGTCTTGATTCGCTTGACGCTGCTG | 104
CGACGTTATCGTTACCACCTGAGGCAAGTTTGTTGTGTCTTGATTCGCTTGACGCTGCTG | 87.8
CATACCCAACCTTGGTTTGTGGGTGAAGATATTTGTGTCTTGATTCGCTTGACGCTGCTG | 69.2
TTGCGGGTTACAAAGCACGGGTCCATTGAAGATCTTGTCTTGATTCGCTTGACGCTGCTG | 98
GAGACAGGCACTCACCACGTGAGGAAGAATTAGAGCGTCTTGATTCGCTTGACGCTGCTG | 1630
CTAACGAAGGTTTGTCACAACACTTACAAGCCAAGTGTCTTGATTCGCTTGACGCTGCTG | 94.5
CTAACGAAGGTTTTTCACGTGCGGTACAAGCCAAGTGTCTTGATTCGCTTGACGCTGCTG | 720
ATATAAATGGAAAAGCTGCATAACCACTTTAACTAAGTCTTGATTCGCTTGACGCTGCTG | 89.7
ATTGGGCGGCTAATCGGCGTGCTGTATAAATCGAGTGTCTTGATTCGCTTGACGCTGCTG | 102
AGGAATGTTAATTCGCTCGTGCGGACTAATTTTTCCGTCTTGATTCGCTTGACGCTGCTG | 115

Some of these lines once more (set 3):
Oligonucleotide | E-score
AATTAGTC | -0.0388
ATCCCTCC | -0.142
ACCCATCG | -0.0948
CGCATCTA | 0.134
ATACCCTA | -0.282
